Experimental data collected from several papers.
Every numbered part comes from another study and shows a few of its results, in no order. Substitutions count along the parent as printed.

Block 1
Cell line: HEK-293T/ACE2
Tested at: concentration not given
Reference: vehicle
With `benzalkonium chloride` the nuclei number was 91.3%.
`Aprotinin` has a nuclei number of 100%.
The nuclei number of `Tyloxapol` is reported as 99.8%.

Block 2
Target: Mu-type opioid receptor (OPRM1, Homo sapiens, UniProt P35372)
UniProt P35372, sequence (whole entry, looked up): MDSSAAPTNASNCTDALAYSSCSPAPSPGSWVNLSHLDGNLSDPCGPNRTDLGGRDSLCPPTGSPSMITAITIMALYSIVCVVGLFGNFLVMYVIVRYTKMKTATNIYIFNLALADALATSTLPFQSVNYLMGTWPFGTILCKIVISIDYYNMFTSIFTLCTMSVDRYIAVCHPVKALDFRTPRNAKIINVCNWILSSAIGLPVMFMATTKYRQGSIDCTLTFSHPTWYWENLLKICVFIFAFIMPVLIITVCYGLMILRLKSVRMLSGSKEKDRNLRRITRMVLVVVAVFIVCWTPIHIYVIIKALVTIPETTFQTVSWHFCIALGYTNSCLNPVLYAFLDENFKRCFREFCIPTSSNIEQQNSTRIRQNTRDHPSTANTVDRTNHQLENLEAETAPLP
Observed: binding
Technique: radioligand binding
Tested at: 10 µM
With `Cc1c(NC(=O)c2cc(C(N)=O)nc3cc(F)ccc23)c(C(F)(F)F)nn1Cc1ccc(C(C)(C)C)cc1` the inhibition was 4.84%.
The inhibition of `CN1C(=O)[C@@H](N2CCc3cn(Cc4ccccc4)nc3C2=O)COc2ccccc21` is reported as 10.6%.
`CCOC(=O)c1cc2cc(-c3cc(C(=O)NCc4ccc(C(=O)O)cc4)nn3C)ccc2[nH]1` gave an inhibition of 0.37%.
`CC(=O)N1CCC(c2ccc(C(=O)NC(=N)N)cc2C(F)(F)F)CC1` gave an inhibition of 8.98%.
`Cc1cc(-n2nc(Cc3cc(F)cc(C(F)(F)F)c3)nc2C)ccc1C(N)=O` gave an inhibition of 0.37%.
The inhibition of `O=C(NC[C@@H]1[C@H]2CN(C(=O)OCc3cc(C(F)(F)F)cc(C(F)(F)F)c3)C[C@@H]12)c1ccc2[nH]nnc2c1` is reported as 43%.
For `O[C@]1(C(F)(F)F)CCCC[C@H]1Nc1ccc(F)cc1`, the inhibition was 6.05%.
With `C[C@@H]1CN(c2cc(-c3nn(C)c4ccc(OC5(C)CC5)cc34)ncn2)C[C@H](C)O1` the inhibition was 13.2%.
`CNC(=O)c1ccc(Nc2ncc(C(F)(F)F)c(NCc3nccnc3N(C)S(C)(=O)=O)n2)cc1` gave an inhibition of -10.7%.
The inhibition of `CCOCCn1cc(C(=O)Nc2ccc(-n3nc(-c4cccnc4)cc3C(F)(F)F)cn2)ccc1=O` is reported as 2.68%.
`CN(C)C(=O)Cn1cc(-c2nc([C@@](C)(c3ccc(-c4cnc(N)nc4)cc3)C3CC3)no2)cn1` has an inhibition of 4.55%.
`Cc1nc(Cc2cccc(C(F)(F)F)c2)sc1-c1ccc(C(N)=O)nc1` gave an inhibition of 5.75%.
The inhibition of `O=C1CCc2cc(Nc3cc(OC4CCOCC4)c([N+](=O)[O-])cc3Cl)ccc2N1` is reported as 1.31%.

Block 3
Target: UDP-N-acetylglucosamine--peptide N-acetylglucosaminyltransferase 110 kDa subunit (OGT, Homo sapiens, UniProt O15294)
Observed: binding
Technique: phage display NGS
Form: peptide
Tested at: concentration not given
Setting: panning round 2
Reference: input library
Construct (O15294 1-1046): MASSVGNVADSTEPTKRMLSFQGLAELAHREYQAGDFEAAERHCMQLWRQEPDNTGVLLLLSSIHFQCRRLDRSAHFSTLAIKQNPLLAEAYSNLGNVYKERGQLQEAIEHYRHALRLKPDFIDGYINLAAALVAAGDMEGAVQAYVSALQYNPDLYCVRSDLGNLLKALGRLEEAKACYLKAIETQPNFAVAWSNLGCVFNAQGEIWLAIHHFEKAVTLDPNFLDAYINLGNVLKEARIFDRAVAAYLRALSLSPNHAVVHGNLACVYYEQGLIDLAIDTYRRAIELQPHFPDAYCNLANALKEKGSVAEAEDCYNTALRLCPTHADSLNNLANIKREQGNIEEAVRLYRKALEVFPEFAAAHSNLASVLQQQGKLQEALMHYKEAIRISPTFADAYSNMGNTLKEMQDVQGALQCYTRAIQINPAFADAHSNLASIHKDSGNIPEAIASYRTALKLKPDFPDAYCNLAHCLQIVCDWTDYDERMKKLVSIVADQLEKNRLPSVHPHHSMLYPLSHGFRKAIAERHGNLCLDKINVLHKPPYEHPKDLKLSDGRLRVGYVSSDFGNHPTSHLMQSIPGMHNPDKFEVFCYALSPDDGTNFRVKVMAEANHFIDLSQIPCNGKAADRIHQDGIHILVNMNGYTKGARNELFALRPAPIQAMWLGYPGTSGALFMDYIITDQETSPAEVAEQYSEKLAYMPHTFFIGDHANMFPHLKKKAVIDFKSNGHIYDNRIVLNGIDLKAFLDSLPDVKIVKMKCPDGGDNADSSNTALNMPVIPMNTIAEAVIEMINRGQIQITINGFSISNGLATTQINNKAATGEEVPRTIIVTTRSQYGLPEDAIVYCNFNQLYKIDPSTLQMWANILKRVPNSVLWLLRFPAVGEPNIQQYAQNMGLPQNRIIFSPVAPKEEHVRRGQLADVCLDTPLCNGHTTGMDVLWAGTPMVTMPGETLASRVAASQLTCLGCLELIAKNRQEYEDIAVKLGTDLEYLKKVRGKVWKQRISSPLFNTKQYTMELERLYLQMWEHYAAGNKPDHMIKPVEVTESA
For `FNFTPYYQIAPGIRS`, “enrichment fold change” read 7.35.
`SHPIHHSLIKMKHNH` — result for “enrichment fold change”: 3.79.
`QPTTSFPPKYLITYT`: “enrichment fold change” 28.1.
Under “enrichment fold change”, `HWFHHTEGWLPQHSR` is recorded as 4.05.
For `FPRWHQLPWPHHVYS`, “enrichment fold change” read 10.5.
`QQDIYPPHYLIELDI`: “enrichment fold change” 6.
`SIKGAKPKYQIEYVF` — result for “enrichment fold change”: 4.
Under “enrichment fold change”, `GRFNPVYQMVWEKTV` is recorded as 12.1.

Block 4
Target: tungstate, free oxyanion
Technique: microfluidic competitive inhibition
Sample: in vitro, cell-free expressed
Tested at: not given
Setting: derived from inhibition constants, unchanged parent 2230 nM
Direction: lower = stronger binding
Parent: PafA, mature enzyme, eGFP fusion (Elizabethkingia meningoseptica, UniProt Q9KJX5); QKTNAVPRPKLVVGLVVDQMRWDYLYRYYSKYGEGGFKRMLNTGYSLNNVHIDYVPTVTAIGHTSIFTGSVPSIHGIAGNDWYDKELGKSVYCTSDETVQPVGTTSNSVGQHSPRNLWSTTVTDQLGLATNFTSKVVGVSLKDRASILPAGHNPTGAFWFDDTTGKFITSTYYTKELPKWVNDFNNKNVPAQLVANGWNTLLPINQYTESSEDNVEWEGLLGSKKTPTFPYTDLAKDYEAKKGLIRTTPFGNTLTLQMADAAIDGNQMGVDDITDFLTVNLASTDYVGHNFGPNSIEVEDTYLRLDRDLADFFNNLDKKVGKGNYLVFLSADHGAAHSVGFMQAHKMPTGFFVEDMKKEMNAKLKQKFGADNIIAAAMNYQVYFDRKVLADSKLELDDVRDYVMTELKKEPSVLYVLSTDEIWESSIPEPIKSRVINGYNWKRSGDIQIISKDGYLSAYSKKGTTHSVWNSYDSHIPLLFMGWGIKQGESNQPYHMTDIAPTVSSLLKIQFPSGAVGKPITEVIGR
`I74V`: “oxyanion analog dissociation constant” 2.42 µM.
`T208V`: “oxyanion analog dissociation constant” 2.7 µM.
`V58G`: “oxyanion analog dissociation constant” 10.1 µM.
Under “oxyanion analog dissociation constant”, `K322V` is recorded as 2.1 µM.
`S90G`: “oxyanion analog dissociation constant” 2 µM.
`A375V`: “oxyanion analog dissociation constant” 2.3 µM.
Under “oxyanion analog dissociation constant”, `S140G` is recorded as 2.56 µM.
For `A331V`, “oxyanion analog dissociation constant” read 2.73 µM.
